# Measured values pooled from the literature.
# MTNR1B: Melatonin receptor type 1B (MTNR1B, Homo sapiens, UniProt P49286)
# UniProt P42336, sequence (whole entry, unmodified, looked up): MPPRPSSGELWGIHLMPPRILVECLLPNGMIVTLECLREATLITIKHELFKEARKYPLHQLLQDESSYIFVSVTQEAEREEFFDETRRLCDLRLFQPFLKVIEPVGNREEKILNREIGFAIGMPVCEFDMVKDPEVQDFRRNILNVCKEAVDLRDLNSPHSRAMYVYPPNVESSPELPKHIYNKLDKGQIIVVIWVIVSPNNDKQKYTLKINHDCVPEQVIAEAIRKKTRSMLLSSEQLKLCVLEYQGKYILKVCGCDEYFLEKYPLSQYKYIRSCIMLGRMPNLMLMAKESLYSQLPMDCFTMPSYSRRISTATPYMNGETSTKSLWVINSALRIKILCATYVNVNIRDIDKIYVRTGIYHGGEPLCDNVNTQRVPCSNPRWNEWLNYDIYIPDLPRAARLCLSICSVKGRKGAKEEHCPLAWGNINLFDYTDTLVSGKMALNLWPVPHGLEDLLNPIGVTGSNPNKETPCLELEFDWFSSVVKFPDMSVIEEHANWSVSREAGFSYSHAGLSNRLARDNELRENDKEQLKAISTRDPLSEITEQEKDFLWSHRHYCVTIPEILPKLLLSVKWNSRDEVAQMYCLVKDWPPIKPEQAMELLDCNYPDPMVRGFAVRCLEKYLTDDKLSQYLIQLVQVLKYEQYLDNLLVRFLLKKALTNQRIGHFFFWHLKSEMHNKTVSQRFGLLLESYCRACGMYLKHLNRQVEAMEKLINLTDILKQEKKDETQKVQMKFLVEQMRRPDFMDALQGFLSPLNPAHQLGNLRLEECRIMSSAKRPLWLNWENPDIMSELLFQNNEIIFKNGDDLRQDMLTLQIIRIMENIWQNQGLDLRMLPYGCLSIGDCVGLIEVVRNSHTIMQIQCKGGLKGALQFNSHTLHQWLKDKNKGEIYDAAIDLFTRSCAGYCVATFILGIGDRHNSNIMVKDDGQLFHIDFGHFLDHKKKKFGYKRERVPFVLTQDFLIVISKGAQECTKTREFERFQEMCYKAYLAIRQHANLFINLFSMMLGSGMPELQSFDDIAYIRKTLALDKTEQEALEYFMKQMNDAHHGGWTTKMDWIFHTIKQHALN
# UniProt P49286, sequence (whole entry, looked up): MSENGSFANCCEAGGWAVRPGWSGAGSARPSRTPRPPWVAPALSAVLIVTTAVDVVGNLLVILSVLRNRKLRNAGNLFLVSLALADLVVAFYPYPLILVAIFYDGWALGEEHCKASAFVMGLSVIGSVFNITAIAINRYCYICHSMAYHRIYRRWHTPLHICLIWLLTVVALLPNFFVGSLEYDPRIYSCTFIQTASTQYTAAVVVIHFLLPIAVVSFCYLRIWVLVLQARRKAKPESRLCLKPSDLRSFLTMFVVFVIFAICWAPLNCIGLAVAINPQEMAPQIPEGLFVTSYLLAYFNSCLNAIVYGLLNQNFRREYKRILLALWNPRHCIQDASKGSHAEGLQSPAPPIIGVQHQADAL
# UniProt Q9BWU1, sequence (whole entry, looked up): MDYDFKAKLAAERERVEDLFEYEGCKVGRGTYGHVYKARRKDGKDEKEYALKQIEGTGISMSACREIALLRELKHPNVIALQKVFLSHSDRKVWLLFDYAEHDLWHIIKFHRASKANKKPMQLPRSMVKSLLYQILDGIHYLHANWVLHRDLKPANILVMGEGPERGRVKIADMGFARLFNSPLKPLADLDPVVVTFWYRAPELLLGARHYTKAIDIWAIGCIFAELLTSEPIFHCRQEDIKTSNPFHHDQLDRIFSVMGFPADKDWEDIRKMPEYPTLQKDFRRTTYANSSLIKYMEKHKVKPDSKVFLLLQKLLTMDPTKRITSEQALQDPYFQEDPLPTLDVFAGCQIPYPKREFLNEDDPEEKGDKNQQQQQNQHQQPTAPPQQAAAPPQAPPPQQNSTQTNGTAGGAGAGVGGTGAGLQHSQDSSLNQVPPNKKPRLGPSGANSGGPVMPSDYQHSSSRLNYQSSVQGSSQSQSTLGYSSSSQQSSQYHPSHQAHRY
# UniProt P22455, sequence (whole entry, looked up): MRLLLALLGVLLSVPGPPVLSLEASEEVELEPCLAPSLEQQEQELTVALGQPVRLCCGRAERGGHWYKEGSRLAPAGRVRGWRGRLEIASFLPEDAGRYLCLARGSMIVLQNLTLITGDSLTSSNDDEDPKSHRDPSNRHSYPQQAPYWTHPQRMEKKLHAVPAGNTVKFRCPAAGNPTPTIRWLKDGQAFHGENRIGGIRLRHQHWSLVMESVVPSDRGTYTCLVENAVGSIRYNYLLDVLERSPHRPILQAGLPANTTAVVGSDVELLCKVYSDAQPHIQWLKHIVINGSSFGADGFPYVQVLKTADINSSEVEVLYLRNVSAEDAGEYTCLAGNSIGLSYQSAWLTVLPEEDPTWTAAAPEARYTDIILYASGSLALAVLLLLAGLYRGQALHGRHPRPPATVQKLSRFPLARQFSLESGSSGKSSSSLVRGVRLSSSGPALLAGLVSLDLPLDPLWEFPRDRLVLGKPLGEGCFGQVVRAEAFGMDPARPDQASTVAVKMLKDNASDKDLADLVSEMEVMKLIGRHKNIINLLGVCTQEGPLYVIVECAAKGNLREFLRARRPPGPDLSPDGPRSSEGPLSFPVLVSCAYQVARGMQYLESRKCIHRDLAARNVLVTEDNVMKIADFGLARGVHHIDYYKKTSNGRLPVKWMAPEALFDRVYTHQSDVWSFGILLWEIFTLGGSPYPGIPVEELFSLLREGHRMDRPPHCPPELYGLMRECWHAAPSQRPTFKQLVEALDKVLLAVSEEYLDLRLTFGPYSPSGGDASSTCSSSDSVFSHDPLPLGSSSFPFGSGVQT
# UniProt Q02779, sequence (whole entry, looked up): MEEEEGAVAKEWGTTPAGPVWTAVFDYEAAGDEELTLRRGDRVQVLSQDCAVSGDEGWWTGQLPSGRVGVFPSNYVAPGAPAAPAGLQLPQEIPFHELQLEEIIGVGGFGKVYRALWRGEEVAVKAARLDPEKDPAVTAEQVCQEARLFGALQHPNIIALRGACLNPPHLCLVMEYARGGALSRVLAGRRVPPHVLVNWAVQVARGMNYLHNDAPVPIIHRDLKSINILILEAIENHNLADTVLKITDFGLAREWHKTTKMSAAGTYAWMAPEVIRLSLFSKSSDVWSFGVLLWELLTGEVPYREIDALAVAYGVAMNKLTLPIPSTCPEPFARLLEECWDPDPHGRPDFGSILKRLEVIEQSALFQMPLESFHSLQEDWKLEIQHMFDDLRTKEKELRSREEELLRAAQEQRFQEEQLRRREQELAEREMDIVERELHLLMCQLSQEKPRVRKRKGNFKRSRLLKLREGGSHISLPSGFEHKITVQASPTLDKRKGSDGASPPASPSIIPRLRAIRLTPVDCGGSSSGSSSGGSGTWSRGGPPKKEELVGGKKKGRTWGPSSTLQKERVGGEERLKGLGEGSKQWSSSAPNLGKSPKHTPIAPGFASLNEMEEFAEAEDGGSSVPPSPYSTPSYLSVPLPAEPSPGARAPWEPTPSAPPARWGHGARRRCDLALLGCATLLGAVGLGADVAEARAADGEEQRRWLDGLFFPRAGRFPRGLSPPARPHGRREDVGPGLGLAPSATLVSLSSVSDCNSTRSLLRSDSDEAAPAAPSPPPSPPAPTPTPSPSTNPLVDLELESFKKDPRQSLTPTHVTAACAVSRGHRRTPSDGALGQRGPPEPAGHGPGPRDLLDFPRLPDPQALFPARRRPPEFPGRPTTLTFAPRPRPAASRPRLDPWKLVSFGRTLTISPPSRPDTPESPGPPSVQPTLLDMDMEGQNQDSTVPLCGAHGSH
# UniProt Q06187, sequence (whole entry, unmodified, looked up): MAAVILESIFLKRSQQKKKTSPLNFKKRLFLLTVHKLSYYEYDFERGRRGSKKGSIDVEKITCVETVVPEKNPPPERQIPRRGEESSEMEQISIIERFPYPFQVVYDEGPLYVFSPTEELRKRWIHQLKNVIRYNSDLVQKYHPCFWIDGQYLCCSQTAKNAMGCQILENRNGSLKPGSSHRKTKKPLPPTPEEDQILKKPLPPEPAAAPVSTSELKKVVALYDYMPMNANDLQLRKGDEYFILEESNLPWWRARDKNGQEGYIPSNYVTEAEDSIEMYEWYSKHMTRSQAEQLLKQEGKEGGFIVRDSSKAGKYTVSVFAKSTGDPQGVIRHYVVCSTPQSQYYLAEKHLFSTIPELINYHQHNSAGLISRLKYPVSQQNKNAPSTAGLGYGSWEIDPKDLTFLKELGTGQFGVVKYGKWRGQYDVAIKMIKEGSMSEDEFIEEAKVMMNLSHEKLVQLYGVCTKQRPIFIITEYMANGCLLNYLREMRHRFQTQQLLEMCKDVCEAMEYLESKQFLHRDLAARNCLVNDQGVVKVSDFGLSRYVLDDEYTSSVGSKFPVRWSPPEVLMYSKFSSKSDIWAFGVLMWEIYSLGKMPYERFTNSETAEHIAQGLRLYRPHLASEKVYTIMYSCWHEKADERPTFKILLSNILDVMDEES
# UniProt Q9BUB5, sequence (whole entry, looked up): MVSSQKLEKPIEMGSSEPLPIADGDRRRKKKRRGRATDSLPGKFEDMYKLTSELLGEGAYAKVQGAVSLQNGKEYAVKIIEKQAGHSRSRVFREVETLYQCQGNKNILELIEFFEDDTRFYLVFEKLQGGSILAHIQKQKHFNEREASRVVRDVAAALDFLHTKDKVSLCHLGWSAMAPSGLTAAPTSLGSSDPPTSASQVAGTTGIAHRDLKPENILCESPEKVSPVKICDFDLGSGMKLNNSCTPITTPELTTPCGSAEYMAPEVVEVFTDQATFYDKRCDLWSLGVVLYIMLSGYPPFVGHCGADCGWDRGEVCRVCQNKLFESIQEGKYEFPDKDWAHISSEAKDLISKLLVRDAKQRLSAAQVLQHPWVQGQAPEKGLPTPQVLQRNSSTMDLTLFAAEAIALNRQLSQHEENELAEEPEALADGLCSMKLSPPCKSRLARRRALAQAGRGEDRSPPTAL
SMILES,target,test,system,setting,measurement,result
COc1ccc2ncn(CCNC(C)=O)c2c1,MTNR1B,"β-arrestin recruitment, agonist",MT2,90 min,Emax,92%
COc1ccc(F)cc1C(=O)NCc1ccc(-c2nn([C@@H](C)C(F)(F)F)c(N)c2C(N)=O)cc1,"Tyrosine-protein kinase BTK (BTK, Homo sapiens, UniProt Q06187, C481S)","binding, SPR",,,kon,85000 M⁻¹ s⁻¹
COc1cc(-c2cncc3c2CN(C)Cc2cc(N4CCNCC4)ccc2-3)cc(OC)c1OC,"Fibroblast growth factor receptor 4 (FGFR4, Homo sapiens, UniProt P22455)","enzyme activity, inhibitor",,1 µM,remaining activity,111%
CC[C@H](C)[C@H](NC(=O)[C@H](CCC(N)=O)NC(=O)[C@@H](NC(=O)[C@H](CCSC)NC(=O)[C@H](CCCCN)NC(=O)[C@H](CO)NC(=O)[C@@H](NC(=O)[C@H](CCSC)NC(=O)[C@H](CC(C)C)NC(=O)[C@H](CC(N)=O)NC(=O)[C@@H](NC(=O)[C@@H](NC(=O)[C@H](CO)NC(=O)[C@H](CC(C)C)NC(=O)[C@H](C)NC(=O)[C@H](CCCNC(=N)N)NC(=O)[C@H](CCC(=O)O)NC(=O)[C@H](Cc1ccc(O)cc1)NC(=O)[C@H](Cc1ccccc1)NC(=O)[C@H](C)NC(=O)[C@H](CC(N)=O)NC(=O)[C@@H](N)CCCCN)[C@@H](C)CC)[C@@H](C)CC)[C@@H](C)O)C(C)C)C(=O)N[C@@H](CC(N)=O)C(=O)N[C@H](C(=O)O)C(C)C,"Mitogen-activated protein kinase 3 (MAPK3, Homo sapiens, UniProt P27361)","enzyme activity, inhibitor, radiometric",,1 µM,inhibition,-1%
NC/C(=C\F)COc1cccc(Cn2c(=S)[nH]c(=O)c3[nH]cnc32)c1,"Myeloperoxidase (MPO, Homo sapiens, UniProt P05164)","enzyme activity, inhibitor",,0.625 µM,remaining activity,13.4%
CN(C)c1ncc(F)c(-c2cnn3ncccc23)n1,"Cyclin-dependent kinase 19 (CDK19, Homo sapiens, UniProt Q9BWU1)",binding,,1 µM,remaining binding,100%
CN1CC(Oc2cnc(C#N)cc2-c2ccn3nc(NC(=O)C4CC4)cc3c2)C1,"Myosin light chain kinase 2, skeletal/cardiac muscle (MYLK2, Homo sapiens, UniProt Q9H1R3)","enzyme activity, inhibitor",,1 µM,inhibition,0%
CCCCC(=O)Nc1ccc(-c2ccc3ncn(CCC)c(=O)c3c2)cn1,"Phosphatidylinositol 4,5-bisphosphate 3-kinase catalytic subunit alpha isoform (PIK3CA, Homo sapiens, UniProt P42336, H1047Y)","binding, competition with immobilised ligand",,0.5 µM,remaining binding,89%
C=CC(=O)N1CCC(COCC(=O)N2CCN(c3nc(-c4cnc(N)nc4C(F)F)nc(N4CCOC[C@@H]4C)n3)CC2)CC1,"Mitogen-activated protein kinase kinase kinase 10 (MAP3K10, Homo sapiens, UniProt Q02779)","binding, competition with immobilised ligand",,1 µM,remaining binding,100%
O=C(NCCc1cccc2ccccc12)C1CCC1,MTNR1B,"cAMP, agonist, TR-FRET",CHO-K1,20 min,Emax,22%
Nc1ncnc2occ(-c3ccc(NC(=O)Nc4cc(C(F)(F)F)ccc4F)cc3)c12,"Phosphatidylinositol 4,5-bisphosphate 3-kinase catalytic subunit alpha isoform (PIK3CA, Homo sapiens, UniProt P42336, C420R)","cell-free assay, inhibitor",,20 µM,remaining signal,100%
CCc1oc2cc(S(=O)(=O)Nc3ccc(S(=O)(=O)Nc4nccs4)cc3)ccc2c1C(=O)c1cc(Br)c(O)c(Br)c1,"Tyrosine-protein phosphatase non-receptor type 1 (PTPN1, Homo sapiens, UniProt P18031)","thermal stability, DSF",,,ΔTm,> 5 °C
Cc1cc([C@@H](C)Nc2ccccc2C(=O)O)c2nc(N3CCC(F)(F)CC3)c(C#N)c(=O)n2c1,"MAP kinase-interacting serine/threonine-protein kinase 1 (MKNK1, Homo sapiens, UniProt Q9BUB5)","binding, competition with immobilised ligand",,10 µM,remaining binding,74%
CNc1ncc2c(/C=C/C(=O)N3CCC(OC)CC3)nn(Cc3cccc(C(F)(F)F)c3)c2n1,"Cyclin-dependent kinase 4, with cyclin D3 (CDK4, Homo sapiens, UniProt P11802)","enzyme activity, inhibitor, radiometric",,1 µM,remaining activity,86%
C1=C/COCc2cc(ccc2OCCN2CCCC2)Nc2nccc(n2)-c2cccc(c2)COC/1,"Mitogen-activated protein kinase kinase kinase 12 (MAP3K12, Homo sapiens, UniProt Q12852)",cell-free assay,,0.1 µM,remaining signal,22%

# For quick reference, copied from above:
SMILES,target,test,system,setting,measurement,result
CN(C)c1ncc(F)c(-c2cnn3ncccc23)n1,"Cyclin-dependent kinase 19 (CDK19, Homo sapiens, UniProt Q9BWU1)",binding,,1 µM,remaining binding,100%
COc1ccc2ncn(CCNC(C)=O)c2c1,MTNR1B,"β-arrestin recruitment, agonist",MT2,90 min,Emax,92%
